Measurements from different studies.
Each numbered part is a random draw from the data of one study; scales do not carry over between parts.

Study 1 — method: protein binding microarray; molecule type: double-stranded DNA, one strand shown; medium: in vitro; tested at: not given; reference: not given; direction: higher = stronger binding
Target: Histone acetyltransferase KAT6A, winged helix 1, GST fusion (KAT6A, Homo sapiens, UniProt Q92794, residues 1-85)
Notes: 8-mer, flanks averaged, mean of 2 arrays, mostly near background
Construct (chain): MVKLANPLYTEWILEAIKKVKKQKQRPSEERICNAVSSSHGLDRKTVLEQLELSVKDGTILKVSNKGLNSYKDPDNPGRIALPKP
Oligonucleotide | E-score
ATCGAGAA | -0.323
GCCTATCC | 0.00336
CGTGTCCA | -0.0199
TTAGTCAA | 0.00808
AAAGCATT | -0.167

Study 2 — method: RNA Bind-n-Seq; molecule type: RNA; medium: in vitro; tested at: 365 nM; reference: no-protein control; direction: higher = stronger binding
Target: RNA binding protein fox-1 homolog 2, RRM domain, GST-SBP tag (RBFOX2, Homo sapiens, UniProt O43251-10, residues 100-194)
Notes: natural RNA segment, single round, ends assumed
Oligonucleotide | RBNS enrichment (R)
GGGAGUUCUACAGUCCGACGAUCAACAUCAUUGAAGCGUGACUGCCUGUCUGCAGGGAGAAGGAUUCCAUUUUUCUUCUCAGCUGGUCCCCAGGCCCACGGGCACAGGGAGAGGGACAACUGCAGCAGUGGGGUGGAAUUCUCGGGUGCCAA | 0.424
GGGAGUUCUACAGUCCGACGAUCACCUGUGUGCCUGUGUUUUCCUGAACAGCUGCUUUCUGUCAGGCAGACUCCUCUGACCUGGAUGCGGUCACAUCCACCUUUAAGAUUGUCAGUGCAUACUCCUUCCUGACUGGAAUUCUCGGGUGCCAA | 1.83
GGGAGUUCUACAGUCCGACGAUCGGUGUCUCAUAGUCACUCAUAGUGGGGUGGUCAGGGGUAAUGGCAUCUCCCCACUUUAGGCUUCUCAAACAGACUUUUGACACCUCUCAAGUUCAGAGCUCUGAUGUGGAUGGAAUUCUCGGGUGCCAA | 0.637
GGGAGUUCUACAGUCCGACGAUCGGACCCUAAUGCAAGUUCCAUGUUCACAGAAAAUUCAUGCACUCUGCGCAAACAGGACGAAAUGGUUGAAGGUGUGAGCUACAUAUGCAUAUCUUUAAUCACACCUAUACUGGAAUUCUCGGGUGCCAA | 0.477
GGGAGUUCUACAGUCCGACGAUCUUUUGGGCUUUUAGUUAGCUAAUGAAUGAAUACAUUAGACACUUUUGGGUUUUAGUUGGGAUUUUACAUAGCUUGCAUUUUAAUUCUUUGGUUCUUUGCUGUUUCUAUUAUGGAAUUCUCGGGUGCCAA | 1.01
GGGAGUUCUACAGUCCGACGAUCGCAUCUCCAUGCCCCUAUAAAGCGUGCCUGGGGCUUGUCUGGGGCUGGGGAGGAAUAAACCAUGUAUAUAAAAGAGUUUCAGGCUGAGCCUGCUUCUGUUCGGUUGUCUGUGGAAUUCUCGGGUGCCAA | 1.53
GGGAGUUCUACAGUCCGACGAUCCAGGGGACUCGCCUACUGAGAGCUGUCAUUGACUUACUGUCUAAAGCCCUGUGCUCCGUGACUCCCACGCAUGAACUCAUCAGGGCCGUGUCUACUCCUUAAUUGUCACAUGGAAUUCUCGGGUGCCAA | 3.7

Study 3 — method: universal PBM; molecule type: double-stranded DNA, one strand shown; medium: in vitro; tested at: not given; direction: higher = stronger binding
Target: Sal-like protein 4, full length isoform B (SALL4, Homo sapiens, UniProt Q9UJQ4-2, residues 1-616)
Notes: 8-mer, flanks averaged, mean of replicates
Oligonucleotide | E-score
CGCAAAGC | -0.143
ATTCCTTC | 0.0612
CGATACAG | -0.0672
CTTTACTC | 0.105

Further values, each from its own experiment
Molecule | target | test | test system | setting | how to read | quantity | result
PhoQ, residues 284 288 289 292 302 303 SMMNNA | PhoP, residues 12 14 15 18 19 HLGGL (Escherichia coli, UniProt P23836) | Sort-seq, item: YFP reporter | E. coli | PhoQ-PhoP variant library, with: 10 µM Mg2+ | reference: high Mg2+ state, higher = stronger signaling | fold induction | 0.593

A few entries again (study 2):
Oligonucleotide | RBNS enrichment (R)
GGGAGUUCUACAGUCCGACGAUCUUUUGGGCUUUUAGUUAGCUAAUGAAUGAAUACAUUAGACACUUUUGGGUUUUAGUUGGGAUUUUACAUAGCUUGCAUUUUAAUUCUUUGGUUCUUUGCUGUUUCUAUUAUGGAAUUCUCGGGUGCCAA | 1.01
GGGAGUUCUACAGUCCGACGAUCGGACCCUAAUGCAAGUUCCAUGUUCACAGAAAAUUCAUGCACUCUGCGCAAACAGGACGAAAUGGUUGAAGGUGUGAGCUACAUAUGCAUAUCUUUAAUCACACCUAUACUGGAAUUCUCGGGUGCCAA | 0.477
